Results pooled from the literature.
Compare with care: the assays were run in different laboratories. “And” joins repeats or separate records; there may be more than shown. ± marks the error that the study gave.

Chains of the proteins cited; added tags and fusions are not shown. Residues count along the entry.
UniProt Q9NRM7, whole entry: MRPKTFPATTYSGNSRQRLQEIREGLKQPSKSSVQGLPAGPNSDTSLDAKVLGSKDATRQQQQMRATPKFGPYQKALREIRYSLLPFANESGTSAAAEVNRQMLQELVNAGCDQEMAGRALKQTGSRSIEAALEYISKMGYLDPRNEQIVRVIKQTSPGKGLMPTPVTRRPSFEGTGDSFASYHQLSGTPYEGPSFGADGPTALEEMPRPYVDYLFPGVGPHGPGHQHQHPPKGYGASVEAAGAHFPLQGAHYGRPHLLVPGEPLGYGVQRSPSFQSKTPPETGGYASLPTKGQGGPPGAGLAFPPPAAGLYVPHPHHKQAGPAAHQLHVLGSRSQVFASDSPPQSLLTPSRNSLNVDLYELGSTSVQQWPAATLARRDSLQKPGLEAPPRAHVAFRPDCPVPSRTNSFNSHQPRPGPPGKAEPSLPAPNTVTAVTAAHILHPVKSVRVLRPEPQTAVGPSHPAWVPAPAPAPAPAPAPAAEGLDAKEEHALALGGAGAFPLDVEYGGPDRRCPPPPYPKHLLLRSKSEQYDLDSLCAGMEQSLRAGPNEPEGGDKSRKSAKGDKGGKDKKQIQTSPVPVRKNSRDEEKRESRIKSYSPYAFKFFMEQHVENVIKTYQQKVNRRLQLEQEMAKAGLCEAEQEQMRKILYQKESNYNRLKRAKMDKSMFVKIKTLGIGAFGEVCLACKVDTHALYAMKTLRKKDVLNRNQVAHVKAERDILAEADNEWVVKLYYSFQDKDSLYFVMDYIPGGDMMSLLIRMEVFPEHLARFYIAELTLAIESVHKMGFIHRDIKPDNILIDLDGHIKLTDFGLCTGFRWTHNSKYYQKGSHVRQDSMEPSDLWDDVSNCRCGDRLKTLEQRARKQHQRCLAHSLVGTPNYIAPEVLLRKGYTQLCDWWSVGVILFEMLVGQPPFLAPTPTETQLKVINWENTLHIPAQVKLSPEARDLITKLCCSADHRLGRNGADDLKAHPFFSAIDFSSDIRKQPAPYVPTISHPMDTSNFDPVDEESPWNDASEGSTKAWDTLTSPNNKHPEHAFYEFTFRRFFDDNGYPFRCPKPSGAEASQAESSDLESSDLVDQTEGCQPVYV
UniProt Q00960, 27-1482 limits assumed: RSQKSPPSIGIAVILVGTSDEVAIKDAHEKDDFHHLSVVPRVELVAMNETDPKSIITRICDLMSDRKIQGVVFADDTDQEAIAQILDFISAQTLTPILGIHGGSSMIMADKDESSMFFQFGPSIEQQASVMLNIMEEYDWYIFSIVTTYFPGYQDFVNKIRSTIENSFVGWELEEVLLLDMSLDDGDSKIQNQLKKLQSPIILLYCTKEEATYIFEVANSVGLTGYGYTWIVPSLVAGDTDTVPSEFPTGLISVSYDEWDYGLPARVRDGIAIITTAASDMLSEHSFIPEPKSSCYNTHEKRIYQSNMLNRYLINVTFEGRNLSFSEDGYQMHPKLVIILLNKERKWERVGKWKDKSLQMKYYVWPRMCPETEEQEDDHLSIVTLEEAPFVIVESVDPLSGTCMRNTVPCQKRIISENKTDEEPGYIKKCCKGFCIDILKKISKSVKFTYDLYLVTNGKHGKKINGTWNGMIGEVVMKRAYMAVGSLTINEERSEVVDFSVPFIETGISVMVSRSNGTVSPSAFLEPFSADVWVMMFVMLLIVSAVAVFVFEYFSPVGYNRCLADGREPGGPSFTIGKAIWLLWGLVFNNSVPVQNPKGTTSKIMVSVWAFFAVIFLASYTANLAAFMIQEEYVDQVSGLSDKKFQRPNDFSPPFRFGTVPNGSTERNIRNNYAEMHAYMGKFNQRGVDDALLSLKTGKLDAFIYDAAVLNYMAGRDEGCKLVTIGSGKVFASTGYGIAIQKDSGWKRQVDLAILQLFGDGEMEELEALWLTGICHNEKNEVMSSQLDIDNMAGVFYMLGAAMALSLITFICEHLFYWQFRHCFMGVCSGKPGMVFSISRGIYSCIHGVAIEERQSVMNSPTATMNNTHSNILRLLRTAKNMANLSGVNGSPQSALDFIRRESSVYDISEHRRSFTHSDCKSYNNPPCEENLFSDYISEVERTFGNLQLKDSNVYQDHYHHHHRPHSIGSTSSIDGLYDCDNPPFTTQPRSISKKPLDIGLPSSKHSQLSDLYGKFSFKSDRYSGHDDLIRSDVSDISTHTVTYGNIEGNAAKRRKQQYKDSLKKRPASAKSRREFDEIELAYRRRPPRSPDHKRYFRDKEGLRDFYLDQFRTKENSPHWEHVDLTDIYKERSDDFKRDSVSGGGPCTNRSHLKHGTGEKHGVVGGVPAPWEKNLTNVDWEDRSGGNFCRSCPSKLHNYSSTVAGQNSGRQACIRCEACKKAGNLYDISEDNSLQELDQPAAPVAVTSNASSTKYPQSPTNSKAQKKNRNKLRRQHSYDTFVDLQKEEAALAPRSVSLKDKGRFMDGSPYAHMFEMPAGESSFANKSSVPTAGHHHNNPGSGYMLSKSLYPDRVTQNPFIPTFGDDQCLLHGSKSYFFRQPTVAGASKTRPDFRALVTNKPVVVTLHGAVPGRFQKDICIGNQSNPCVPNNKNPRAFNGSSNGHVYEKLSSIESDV
UniProt F7BWZ9, 18-604 limits assumed: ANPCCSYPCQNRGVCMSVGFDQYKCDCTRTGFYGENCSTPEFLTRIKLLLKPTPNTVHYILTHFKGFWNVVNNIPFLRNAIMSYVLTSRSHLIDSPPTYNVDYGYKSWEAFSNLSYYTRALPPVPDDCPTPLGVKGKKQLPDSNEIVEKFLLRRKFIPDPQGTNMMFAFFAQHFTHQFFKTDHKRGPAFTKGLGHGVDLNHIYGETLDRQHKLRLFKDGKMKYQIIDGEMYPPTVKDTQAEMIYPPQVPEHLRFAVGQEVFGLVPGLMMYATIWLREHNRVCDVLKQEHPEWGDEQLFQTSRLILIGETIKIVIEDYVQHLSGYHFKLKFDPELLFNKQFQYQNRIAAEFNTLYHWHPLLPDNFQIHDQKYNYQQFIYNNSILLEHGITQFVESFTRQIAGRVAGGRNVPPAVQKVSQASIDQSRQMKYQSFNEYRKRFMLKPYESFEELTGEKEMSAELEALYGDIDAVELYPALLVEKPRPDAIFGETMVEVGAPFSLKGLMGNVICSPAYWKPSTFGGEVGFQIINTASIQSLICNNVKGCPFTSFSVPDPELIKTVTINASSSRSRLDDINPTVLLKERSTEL
UniProt P31421, 19-872 limits assumed: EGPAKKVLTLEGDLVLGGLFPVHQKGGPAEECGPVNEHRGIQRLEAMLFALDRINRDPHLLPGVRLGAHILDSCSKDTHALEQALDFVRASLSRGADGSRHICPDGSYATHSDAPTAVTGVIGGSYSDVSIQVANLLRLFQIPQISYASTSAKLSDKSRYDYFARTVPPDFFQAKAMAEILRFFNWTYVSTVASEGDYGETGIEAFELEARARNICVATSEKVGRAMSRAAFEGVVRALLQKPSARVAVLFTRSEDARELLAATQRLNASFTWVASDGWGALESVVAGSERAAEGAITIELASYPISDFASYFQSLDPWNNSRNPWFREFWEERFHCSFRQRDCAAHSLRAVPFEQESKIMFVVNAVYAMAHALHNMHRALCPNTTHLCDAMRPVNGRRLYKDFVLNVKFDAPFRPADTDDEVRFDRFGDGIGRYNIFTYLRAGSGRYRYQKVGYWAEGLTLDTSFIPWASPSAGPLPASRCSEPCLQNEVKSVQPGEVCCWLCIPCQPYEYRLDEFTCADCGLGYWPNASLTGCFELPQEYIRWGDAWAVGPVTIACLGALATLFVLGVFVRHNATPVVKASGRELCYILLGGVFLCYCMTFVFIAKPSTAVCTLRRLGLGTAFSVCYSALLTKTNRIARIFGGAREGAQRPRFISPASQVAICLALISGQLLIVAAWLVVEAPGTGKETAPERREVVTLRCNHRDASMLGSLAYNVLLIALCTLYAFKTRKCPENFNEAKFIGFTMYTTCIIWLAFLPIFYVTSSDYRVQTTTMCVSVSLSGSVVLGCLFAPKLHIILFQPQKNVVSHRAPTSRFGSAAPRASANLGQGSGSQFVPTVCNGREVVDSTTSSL
UniProt P49720, whole entry, looked up: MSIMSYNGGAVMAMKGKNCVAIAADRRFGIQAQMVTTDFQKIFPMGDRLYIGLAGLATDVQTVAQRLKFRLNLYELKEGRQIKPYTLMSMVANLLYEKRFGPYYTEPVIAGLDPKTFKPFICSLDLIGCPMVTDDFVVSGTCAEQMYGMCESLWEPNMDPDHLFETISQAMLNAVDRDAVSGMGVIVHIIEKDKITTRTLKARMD
UniProt Q99436, whole entry, looked up: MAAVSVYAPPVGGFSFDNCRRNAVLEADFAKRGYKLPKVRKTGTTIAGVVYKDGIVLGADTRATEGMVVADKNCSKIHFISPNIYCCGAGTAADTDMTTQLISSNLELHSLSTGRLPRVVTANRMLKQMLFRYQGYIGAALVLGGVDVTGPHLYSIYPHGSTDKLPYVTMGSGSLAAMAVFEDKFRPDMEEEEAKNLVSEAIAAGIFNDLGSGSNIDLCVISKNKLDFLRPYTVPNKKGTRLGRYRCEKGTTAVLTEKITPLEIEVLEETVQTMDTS
UniProt A0A381MCS3, 1-451: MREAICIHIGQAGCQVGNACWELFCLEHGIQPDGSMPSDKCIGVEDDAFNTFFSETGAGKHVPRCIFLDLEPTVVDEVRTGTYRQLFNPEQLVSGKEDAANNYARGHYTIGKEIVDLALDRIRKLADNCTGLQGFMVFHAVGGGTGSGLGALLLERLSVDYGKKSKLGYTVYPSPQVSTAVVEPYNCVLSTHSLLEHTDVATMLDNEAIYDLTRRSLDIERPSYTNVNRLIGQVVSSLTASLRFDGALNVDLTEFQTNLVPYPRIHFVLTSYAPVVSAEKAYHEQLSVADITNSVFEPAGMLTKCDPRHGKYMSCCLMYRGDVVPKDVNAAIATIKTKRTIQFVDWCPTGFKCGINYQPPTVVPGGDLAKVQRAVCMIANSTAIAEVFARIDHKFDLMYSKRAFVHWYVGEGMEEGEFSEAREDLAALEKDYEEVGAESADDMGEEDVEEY
UniProt P14902, whole entry: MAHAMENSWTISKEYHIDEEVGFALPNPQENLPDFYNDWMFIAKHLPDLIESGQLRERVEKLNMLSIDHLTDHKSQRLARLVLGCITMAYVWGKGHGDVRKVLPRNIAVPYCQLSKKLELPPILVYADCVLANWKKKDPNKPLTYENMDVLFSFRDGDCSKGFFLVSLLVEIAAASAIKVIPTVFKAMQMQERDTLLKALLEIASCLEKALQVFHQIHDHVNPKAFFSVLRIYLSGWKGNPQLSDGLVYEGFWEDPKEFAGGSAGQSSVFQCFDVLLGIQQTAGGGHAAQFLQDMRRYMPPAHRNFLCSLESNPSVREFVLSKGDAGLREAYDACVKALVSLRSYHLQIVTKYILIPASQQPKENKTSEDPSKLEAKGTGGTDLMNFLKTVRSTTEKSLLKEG
UniProt P11362, 22-822 limits assumed: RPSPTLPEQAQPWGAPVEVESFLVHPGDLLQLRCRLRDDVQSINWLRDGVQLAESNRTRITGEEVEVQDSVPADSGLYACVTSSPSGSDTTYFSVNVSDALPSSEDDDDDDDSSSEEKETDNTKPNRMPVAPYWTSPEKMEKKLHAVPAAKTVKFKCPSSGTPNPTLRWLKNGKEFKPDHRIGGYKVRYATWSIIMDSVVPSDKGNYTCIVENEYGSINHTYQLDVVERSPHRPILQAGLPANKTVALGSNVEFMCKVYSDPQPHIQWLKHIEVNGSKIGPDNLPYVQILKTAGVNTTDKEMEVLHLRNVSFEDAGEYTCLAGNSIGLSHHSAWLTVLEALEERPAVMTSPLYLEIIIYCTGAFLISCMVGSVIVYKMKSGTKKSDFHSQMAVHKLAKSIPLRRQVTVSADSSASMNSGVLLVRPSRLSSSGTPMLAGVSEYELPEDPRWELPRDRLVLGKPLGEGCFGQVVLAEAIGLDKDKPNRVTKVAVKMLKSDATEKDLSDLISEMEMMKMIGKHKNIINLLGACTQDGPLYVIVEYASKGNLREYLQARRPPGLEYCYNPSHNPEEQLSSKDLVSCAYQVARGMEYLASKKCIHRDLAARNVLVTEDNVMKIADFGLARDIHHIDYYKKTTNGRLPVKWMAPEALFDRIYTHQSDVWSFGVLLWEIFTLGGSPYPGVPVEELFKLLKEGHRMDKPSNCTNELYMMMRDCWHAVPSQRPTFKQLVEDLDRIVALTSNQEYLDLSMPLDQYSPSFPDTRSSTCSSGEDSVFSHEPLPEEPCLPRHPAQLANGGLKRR
UniProt P28300, whole entry, looked up: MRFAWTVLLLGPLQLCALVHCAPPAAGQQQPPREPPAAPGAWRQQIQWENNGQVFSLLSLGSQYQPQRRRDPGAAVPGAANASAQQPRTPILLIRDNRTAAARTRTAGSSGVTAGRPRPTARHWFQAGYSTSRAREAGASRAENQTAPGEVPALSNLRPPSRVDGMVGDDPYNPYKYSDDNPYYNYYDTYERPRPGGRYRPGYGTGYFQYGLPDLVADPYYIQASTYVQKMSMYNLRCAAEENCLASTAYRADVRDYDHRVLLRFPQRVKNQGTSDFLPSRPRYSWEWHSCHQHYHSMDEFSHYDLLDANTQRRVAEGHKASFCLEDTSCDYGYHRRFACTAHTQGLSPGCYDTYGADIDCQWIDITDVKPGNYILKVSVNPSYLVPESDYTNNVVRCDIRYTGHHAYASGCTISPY

Structure (SMILES)	target	assay	system	conditions	IC50
Clc1ccc(C2(c3ccc(-c4cccnc4)cc3)CCNCC2)cc1	Serine/threonine-protein kinase LATS2 (LATS2, Homo sapiens, UniProt Q9NRM7)	kinase activity, inhibitor, radiometric HotSpot		together with: ATP 10 µM	> 10 µM
Cc1nc2ccccn2c1-c1ccnc(SCC(=O)Nc2ccc(C(C)C)cc2)n1	ALK tyrosine kinase receptor (ALK, Homo sapiens, UniProt Q9UM73)	ELISA			20 µM
CCN(CCc1ccc(Cl)c(Cl)c1)C[C@H](O)COc1ccc(NS(C)(=O)=O)cc1	Glutamate NMDA receptor; Grin1/Grin2b (Grin1/Grin2b, Rattus norvegicus, UniProt P35439+Q00960)			pH 7.6	0.067 µM
COc1ccc(-c2nc(C(F)(F)F)nn2-c2ccc(OC)nc2)cc1	Prostaglandin G/H synthase 2 (Macaca mulatta, UniProt F7BWZ9)	PGE2 production, inhibitor, enzyme immunoassay	monkey whole blood		0.125 ± 0.034 µM
NC(=O)c1cn(-c2ccc(F)cc2)c2ccc(CCc3ccccc3)cc2c1=O	Metabotropic glutamate receptor 2 (Grm2, Rattus norvegicus, UniProt P31421)	calcium mobilization, negative allosteric modulator			6.89 µM
CN1CCC[C@@H]1C(=O)N[C@@H](Cc1ccc(-c2ccccn2)cc1)B(O)O	Proteasome subunit beta type-3/PSMB7, trypsin-like site (Homo sapiens, UniProt P49720+Q99436)	β2c enzyme activity, inhibitor		together with: Ac-KQL-AMC	> 10 µM
Nc1ccc(Cl)cc1-c1nc2ccccc2[nH]c1=O	Protein diaphanous homolog 1, FH2 domain (Diaph1, Mus musculus, UniProt O08808)	actin assembly, inhibitor, pyrene-actin polymerization			> 50 µM
COC(=O)[C@@H]1C(C=Nc2ccccc2O)=Cc2cc3c(cc2[C@H]1c1cc(OC)c(OC)c(OC)c1)OCO3	Tubulin alpha/beta heterodimer (Leishmania infantum, UniProt A0A381MCS3+A4HTR0)	tubulin polymerization, inhibitor		37 °C, together with: tubulin 1.2 mg/mL	1.16 µM and 1.2 µM
CCC(=O)Nc1ccc(-c2csc(NC(=O)c3cccc(OC)c3)n2)cc1	Scavenger receptor class B member 1 (Mus musculus, UniProt Q61009)	DiI-HDL uptake, inhibitor	mouse cells	together with: DiI-HDL	0.085 µM
O=C(CC1SC(=NN=Cc2ccccc2[N+](=O)[O-])NC1=O)Nc1ccc(C(=O)O)cc1 (stereo not shown)	Protein phosphatase 3 catalytic subunit alpha (PPP3CA, Homo sapiens, UniProt Q08209)	phosphatase activity, inhibitor, malachite green		together with: phosphopeptide substrate at Km	63 µM
CN1CC[C@H](c2c(O)cc(O)c3c(=O)cc(-c4cnccc4Cl)oc23)[C@H](O)C1	Cyclin-dependent kinase 2, part with cyclin A (CDK2, Homo sapiens, UniProt P24941)	enzyme activity, inhibitor		with cyclin A, together with: histone H1 substrate	0.314 µM
O=C(OC(C(F)(F)F)C(F)(F)F)N1CC(OC(c2ccccc2)c2ccccc2)C1	Monoglyceride lipase (MGLL, Homo sapiens, UniProt Q99685)	inhibitor, fluorescence		together with: AHMMCE substrate	0.0121 ± 0.0022 µM
CCOC(=O)c1c(C)oc2c1C(=O)c1nc(Oc3cccnc3)ccc1C2=O	Tyrosyl-DNA phosphodiesterase 2 (TDP2, Homo sapiens, UniProt O95551)	enzyme activity, inhibitor		together with: 5'-phosphotyrosyl oligonucleotide substrate	> 111 µM
Oc1cccc(/C=C/c2c[nH]c3ccc(F)cc23)c1	Indoleamine 2,3-dioxygenase 1 (IDO1, Homo sapiens, UniProt P14902)	enzyme activity, inhibitor			10 µM
COc1ccccc1C(=O)Nc1ccc(-c2nc3ccccc3s2)cc1	Tyrosine-protein kinase SYK, with FCER1G (SYK, Homo sapiens, UniProt P43405)	protein binding, inhibitor, TR-FRET			> 100 µM
COc1cc(Nc2ncnc(-c3cccnc3Nc3cc(NC(=O)c4cccc(C(F)(F)F)c4)ccc3C)n2)cc(OC)c1OC	Tyrosine-protein kinase ABL1 (ABL1, Homo sapiens, UniProt P00519, Y253H)	enzyme activity		kinase domain	0.025 ± 0.008 µM
Cc1ccc(-n2nc3c(=O)[nH]nc(N)c3c2-c2oc3ccc(C)cc3c2C)cc1	Fibroblast growth factor receptor 1 (FGFR1, Homo sapiens, UniProt P11362)	kinase activity, inhibitor, ELISA			0.0074 ± 0.001 µM
COc1ccccc1Nc1nc(-c2sc(N)nc2C)cs1	Protein-lysine 6-oxidase (Homo sapiens, UniProt P28300)	LOX activity, inhibitor	MDA-MB-231		> 10 µM
O=C(CSc1ccc2ccccc2c1)Nc1ccc2nc(SCC(=O)NC3CC3)sc2c1	Estrogen receptor (ESR1, Homo sapiens, UniProt P03372)	reporter gene, antagonist	HEC-1 transfected ERα luciferase reporter		8.7 µM

Some of these lines once more:
Structure (SMILES)	target	assay	system	conditions	IC50
Clc1ccc(C2(c3ccc(-c4cccnc4)cc3)CCNCC2)cc1	Serine/threonine-protein kinase LATS2 (LATS2, Homo sapiens, UniProt Q9NRM7)	kinase activity, inhibitor, radiometric HotSpot		together with: ATP 10 µM	> 10 µM
Cc1nc2ccccn2c1-c1ccnc(SCC(=O)Nc2ccc(C(C)C)cc2)n1	ALK tyrosine kinase receptor (ALK, Homo sapiens, UniProt Q9UM73)	ELISA			20 µM
CCN(CCc1ccc(Cl)c(Cl)c1)C[C@H](O)COc1ccc(NS(C)(=O)=O)cc1	Glutamate NMDA receptor; Grin1/Grin2b (Grin1/Grin2b, Rattus norvegicus, UniProt P35439+Q00960)			pH 7.6	0.067 µM
